Experimental data pooled from the literature.
Compare with care: the assays were run in different laboratories. Numbers after ± are the reported error.
XIAP BIR3: E3 ubiquitin-protein ligase XIAP, BIR3 (XIAP, Homo sapiens, UniProt P98170)
UniProt P98170, sequence (whole entry, looked up): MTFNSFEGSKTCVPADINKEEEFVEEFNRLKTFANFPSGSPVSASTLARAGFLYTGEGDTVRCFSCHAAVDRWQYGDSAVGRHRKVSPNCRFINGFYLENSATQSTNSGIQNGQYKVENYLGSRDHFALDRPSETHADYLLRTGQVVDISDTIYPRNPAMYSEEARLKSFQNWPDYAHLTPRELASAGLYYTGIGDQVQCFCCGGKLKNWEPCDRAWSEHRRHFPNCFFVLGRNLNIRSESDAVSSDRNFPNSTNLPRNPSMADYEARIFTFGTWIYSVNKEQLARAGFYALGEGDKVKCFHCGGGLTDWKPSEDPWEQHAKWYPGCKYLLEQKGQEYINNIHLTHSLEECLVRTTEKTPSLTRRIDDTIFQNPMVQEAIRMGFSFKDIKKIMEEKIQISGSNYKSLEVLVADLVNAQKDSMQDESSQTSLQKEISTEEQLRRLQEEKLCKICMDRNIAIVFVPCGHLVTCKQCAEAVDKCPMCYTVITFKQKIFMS
EPHA2: Ephrin type-A receptor 2 (EPHA2, Homo sapiens, UniProt P29317)
UniProt P29317, sequence (whole entry, looked up): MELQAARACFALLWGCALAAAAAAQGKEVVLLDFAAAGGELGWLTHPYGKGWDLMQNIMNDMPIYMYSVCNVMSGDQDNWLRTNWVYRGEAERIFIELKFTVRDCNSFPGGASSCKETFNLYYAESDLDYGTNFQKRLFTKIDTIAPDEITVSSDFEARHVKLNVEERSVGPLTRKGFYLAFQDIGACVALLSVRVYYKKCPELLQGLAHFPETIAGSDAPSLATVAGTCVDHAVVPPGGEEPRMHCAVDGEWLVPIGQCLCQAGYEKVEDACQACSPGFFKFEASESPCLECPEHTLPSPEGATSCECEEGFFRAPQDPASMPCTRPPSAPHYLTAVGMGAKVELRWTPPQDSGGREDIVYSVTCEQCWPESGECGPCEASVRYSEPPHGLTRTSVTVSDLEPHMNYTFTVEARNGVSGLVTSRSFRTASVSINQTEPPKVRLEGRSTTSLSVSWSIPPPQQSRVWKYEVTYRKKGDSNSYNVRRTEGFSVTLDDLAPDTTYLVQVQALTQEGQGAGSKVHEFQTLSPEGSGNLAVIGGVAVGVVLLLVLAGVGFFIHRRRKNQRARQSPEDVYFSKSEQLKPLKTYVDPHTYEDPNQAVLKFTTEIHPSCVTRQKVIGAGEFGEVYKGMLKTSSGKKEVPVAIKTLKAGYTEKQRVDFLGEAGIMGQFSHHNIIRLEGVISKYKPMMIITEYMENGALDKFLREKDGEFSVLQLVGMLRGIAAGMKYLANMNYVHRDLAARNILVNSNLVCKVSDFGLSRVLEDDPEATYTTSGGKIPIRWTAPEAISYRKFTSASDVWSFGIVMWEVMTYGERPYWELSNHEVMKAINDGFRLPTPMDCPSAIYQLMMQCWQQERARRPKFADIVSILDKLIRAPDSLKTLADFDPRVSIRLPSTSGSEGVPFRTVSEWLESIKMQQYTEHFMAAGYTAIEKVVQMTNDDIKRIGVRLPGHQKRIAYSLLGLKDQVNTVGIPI
GLAA: Glucoamylase (GLAA, Aspergillus niger, UniProt P69328)
UniProt P69328, sequence (whole entry, looked up): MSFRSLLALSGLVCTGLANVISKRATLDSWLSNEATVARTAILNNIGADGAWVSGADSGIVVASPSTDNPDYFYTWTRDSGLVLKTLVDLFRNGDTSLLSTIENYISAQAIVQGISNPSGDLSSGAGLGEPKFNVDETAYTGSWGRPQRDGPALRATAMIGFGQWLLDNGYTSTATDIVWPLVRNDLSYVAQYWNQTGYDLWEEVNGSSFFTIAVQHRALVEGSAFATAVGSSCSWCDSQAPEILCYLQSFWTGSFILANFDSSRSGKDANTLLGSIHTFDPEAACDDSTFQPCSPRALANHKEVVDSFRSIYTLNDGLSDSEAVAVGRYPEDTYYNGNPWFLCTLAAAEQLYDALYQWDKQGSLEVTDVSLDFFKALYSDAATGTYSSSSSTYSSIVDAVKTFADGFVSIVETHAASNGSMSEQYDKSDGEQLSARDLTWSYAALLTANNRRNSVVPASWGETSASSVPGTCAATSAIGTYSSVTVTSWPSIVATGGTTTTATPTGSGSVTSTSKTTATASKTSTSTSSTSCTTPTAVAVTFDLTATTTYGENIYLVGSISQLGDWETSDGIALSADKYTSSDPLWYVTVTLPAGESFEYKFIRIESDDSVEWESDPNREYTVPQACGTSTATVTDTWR
Astl: Astacin-like metalloendopeptidase (Astl, Mus musculus, UniProt Q6HA09)
UniProt Q6HA09, sequence (whole entry, looked up): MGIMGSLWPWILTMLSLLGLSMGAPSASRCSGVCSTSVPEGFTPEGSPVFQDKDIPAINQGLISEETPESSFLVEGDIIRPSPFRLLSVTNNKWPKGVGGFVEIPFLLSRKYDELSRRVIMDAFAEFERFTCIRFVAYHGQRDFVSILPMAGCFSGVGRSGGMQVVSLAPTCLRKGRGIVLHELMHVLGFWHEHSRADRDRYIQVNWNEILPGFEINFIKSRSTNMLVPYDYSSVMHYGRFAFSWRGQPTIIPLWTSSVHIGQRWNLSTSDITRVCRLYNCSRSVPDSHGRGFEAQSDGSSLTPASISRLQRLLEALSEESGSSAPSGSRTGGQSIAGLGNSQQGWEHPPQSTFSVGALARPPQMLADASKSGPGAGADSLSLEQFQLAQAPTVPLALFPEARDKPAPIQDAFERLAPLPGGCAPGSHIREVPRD
CFTR: Cystic fibrosis transmembrane conductance regulator (CFTR, Homo sapiens, UniProt P13569)
bglA: bglA (Thermotoga maritima, UniProt Q08638)
UniProt Q08638, sequence (whole entry, looked up): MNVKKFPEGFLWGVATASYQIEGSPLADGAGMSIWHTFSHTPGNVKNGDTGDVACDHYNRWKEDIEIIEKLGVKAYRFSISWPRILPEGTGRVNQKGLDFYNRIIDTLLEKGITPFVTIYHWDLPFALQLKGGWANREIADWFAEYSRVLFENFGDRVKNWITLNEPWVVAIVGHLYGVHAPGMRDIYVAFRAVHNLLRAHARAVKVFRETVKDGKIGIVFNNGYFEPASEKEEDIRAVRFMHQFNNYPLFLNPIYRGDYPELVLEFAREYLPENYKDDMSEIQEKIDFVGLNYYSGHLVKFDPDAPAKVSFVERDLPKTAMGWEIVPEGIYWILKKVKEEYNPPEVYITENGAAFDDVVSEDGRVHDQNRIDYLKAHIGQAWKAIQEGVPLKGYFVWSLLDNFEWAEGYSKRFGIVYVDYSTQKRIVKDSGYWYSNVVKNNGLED
Calpain-2 catalytic subunit: Calpain-2 catalytic subunit (Homo sapiens, UniProt P17655)
UniProt P17655, sequence (whole entry, looked up): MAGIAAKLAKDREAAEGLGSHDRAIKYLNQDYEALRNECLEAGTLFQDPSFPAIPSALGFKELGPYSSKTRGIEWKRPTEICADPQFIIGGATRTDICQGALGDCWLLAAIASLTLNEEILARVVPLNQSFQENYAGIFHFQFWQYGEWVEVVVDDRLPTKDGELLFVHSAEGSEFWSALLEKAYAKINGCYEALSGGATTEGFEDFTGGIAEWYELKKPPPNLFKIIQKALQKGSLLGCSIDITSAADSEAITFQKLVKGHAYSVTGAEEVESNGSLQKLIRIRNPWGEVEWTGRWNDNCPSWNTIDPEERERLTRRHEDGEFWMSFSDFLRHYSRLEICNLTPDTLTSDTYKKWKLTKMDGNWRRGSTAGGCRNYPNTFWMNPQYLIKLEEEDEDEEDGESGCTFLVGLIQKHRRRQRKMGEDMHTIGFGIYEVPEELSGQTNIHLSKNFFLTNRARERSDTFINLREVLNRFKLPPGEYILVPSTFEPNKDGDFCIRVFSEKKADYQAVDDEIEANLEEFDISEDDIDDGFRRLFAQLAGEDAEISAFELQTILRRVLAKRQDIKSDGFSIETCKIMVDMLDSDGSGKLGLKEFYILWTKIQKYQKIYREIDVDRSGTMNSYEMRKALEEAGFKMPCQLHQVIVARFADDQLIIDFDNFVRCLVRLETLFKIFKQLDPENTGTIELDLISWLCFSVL
UniProt P14416, sequence (whole entry, looked up): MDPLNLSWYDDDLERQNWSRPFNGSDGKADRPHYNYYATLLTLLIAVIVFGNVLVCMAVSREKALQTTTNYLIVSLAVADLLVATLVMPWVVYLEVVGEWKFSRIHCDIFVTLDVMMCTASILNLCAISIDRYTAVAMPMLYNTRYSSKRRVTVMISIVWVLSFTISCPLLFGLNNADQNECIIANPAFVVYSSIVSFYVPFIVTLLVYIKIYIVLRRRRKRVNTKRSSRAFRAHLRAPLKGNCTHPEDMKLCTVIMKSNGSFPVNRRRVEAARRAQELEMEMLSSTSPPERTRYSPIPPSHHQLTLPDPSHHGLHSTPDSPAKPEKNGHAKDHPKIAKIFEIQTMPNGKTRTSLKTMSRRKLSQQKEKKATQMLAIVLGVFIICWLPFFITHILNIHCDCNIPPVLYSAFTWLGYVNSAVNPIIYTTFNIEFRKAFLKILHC
UniProt P21554, sequence (whole entry, looked up): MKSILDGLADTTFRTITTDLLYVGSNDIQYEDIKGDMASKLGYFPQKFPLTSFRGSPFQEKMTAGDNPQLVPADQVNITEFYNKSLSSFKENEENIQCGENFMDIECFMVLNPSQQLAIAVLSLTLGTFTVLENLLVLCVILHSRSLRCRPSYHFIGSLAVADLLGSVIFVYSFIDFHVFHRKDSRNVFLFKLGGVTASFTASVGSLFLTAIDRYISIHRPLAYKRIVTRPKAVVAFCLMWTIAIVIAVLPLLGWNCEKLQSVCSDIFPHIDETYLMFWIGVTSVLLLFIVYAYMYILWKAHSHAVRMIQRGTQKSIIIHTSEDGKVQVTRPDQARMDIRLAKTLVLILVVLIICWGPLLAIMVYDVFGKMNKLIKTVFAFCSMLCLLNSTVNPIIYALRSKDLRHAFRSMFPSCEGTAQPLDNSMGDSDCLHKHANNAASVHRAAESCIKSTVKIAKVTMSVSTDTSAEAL
UniProt P28482, sequence (whole entry, looked up): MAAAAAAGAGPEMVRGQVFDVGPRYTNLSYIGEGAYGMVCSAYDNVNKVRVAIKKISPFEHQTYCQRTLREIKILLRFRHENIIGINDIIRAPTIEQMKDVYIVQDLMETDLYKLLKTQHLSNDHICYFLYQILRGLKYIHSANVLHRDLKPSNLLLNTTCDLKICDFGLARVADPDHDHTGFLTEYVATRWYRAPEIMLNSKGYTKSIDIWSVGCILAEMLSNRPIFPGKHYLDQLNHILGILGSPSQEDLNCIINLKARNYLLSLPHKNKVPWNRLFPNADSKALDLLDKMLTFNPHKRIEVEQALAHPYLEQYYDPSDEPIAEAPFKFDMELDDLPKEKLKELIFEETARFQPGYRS

COc1ccc2[nH]c(NC(=N)N)nc2c1  Ki (DHFR (Homo sapiens, UniProt P00374); inhibitor): 18.1 µM
CNc1ccccc1C(=O)O[C@H]1[C@@H](O)[C@H](n2ccc(N)nc2=O)O[C@@H]1COP(=O)(O)OP(=O)(O)O  Ki (ADCY1 (Bos taurus, UniProt P19754); adenylyl cyclase activity, inhibitor; Sf9 membranes; with: 5 mM MnCl2, 100 µM forskolin): 0.58 ± 0.01 µM
N=C(N)NCC(=O)NCC1(Nc2ccccc2)CCCN(Cc2ccccc2)C1 (stereo not shown)  Ki (Neuropeptide FF receptor 2 (Homo sapiens, UniProt Q9Y5X5); cell-free assay): 1.89 µM
CC(C)N1C[C@H](C)[C@H](NC(=O)c2cc3ccc(Br)cc3[nH]2)C1  Ki (DRD2 (Homo sapiens, UniProt P14416); ligand displacement, radioligand): > 10 µM
O=C1c2cccc3cccc(c23)C(=O)N1CCNCCN1C(=O)c2cccc3cccc(c23)C1=O  Ki (Chitooligosaccharidolytic beta-N-acetylglucosaminidase (Ostrinia furnacalis, UniProt Q06GJ0); inhibitor; pH 6.0, 25 °C, with: pNP-β-GlcNAc): > 100 µM
CN[C@@H](C)C(=O)N[C@H]1CN(C(=O)Cc2ccccc2)CC[C@H]2CC[C@@H](C(=O)NCc3cccc(C(F)(F)F)c3)N2C1=O  Ki (XIAP BIR3; ligand displacement, FP): 3.75 µM
CNC(=O)c1cc(C)ccc1NC(=O)c1ccc(-c2cc(O)ccc2C)c(C)c1  Ki (EPHA2; enzyme activity, inhibitor): 0.0225 µM
CCC[C@@H]1[C@H](O)[C@@H](O)[C@H](O)[C@@H](CO)N1C(=S)NCc1ccc(OC)cc1  Ki (GLAA; enzyme activity, inhibitor): 842 µM
C#CCOC(=O)[C@@]1(C)C=C(C(=O)OC(C)(C)C)C(=O)CC1  Ki (MAPK1 (Homo sapiens, UniProt P28482); ligand displacement, FP): 3.8 µM
CCCCCCCC[C@@H]1[C@H](O)[C@@H](O)[C@H](O)[C@@H](CO)N1C(=S)NCCCC  Ki (GLAA; enzyme activity, inhibitor): 92 µM
O=C(CN(Cc1cccc(C(=O)O)c1)Cc1cccc(C(=O)O)c1)NO  Ki (Astl; enzyme activity, inhibitor, fluorogenic; pH 7.4, 37 °C, apparent Ki, Morrison equation, with: 25 µM substrate): 2.16 ± 0.02 µM
CCOC(=O)C1CCN(C(=O)Cn2cnc3sc4c(c3c2=O)CCCC4)CC1  Ki (CFTR; concentration not given): ~5 µM
CCCCCCCC/N=C1/SC[C@@H]2[C@@H](O)[C@H](O)[C@@H](O)[C@@H](CCC)N12  Ki (GLAA; enzyme activity, competitive inhibitor; optimal pH, with: p-nitrophenyl glycopyranoside): > 2000 µM
CNC(=O)C1CCN(C(=O)CCC(=O)N(CC(C)(C)C)c2ccc(Cl)cc2C(O)c2ccccc2Cl)CC1 (stereo not shown)  Ki (Squalene synthase (Homo sapiens, UniProt P37268); binding, fluorescence polarization competition; active site tracer): 0.7 µM
CCC[C@@H]1[C@H](O)[C@@H](O)[C@H](O)[C@@H](CO)N1C(=S)NCc1ccc(C(F)(F)F)cc1  Ki (bglA; competitive inhibitor; with: p-nitrophenyl glucopyranoside): > 2000 µM
CNC(=O)C1CCN(c2cc(C)c(F)cc2NC(=O)c2ccc(-c3cc(O)ccc3C)c(C)c2)CC1  Ki (Tyrosine-protein kinase Lyn, isoform A (LYN, Homo sapiens, UniProt P07948); LanthaScreen binding): 0.0118 µM
CCC[C@H]1N[C@H](CO)[C@@H](O)[C@H](O)[C@H]1O  Ki (bglA; competitive inhibitor; with: p-nitrophenyl glucopyranoside): 657 ± 65 µM
Cc1ccc(O)c(C(=O)Nc2ccc(CN)cc2)c1  Ki (TMPRSS11D (Homo sapiens, UniProt O60235); enzyme activity, inhibitor, fluorescence): 1.4 µM
CC(=O)c1ccc(NC(=O)Cn2c(C)cc(=O)n3nc(-c4ccc(Cl)cc4)nc23)cc1  Ki (CNR1 (Homo sapiens, UniProt P21554); binding): no binding
Cc1ncsc1-c1ccc([C@H](C)NC(=O)[C@@H]2C[C@@H](O)CN2C(=O)[C@@H](N)C(C)(C)C)cc1  Ki (von Hippel-Lindau disease tumor suppressor, with elongin B/C (VHL, Homo sapiens, UniProt P40337)): 3.4 µM
[N-]=[N+]=N[C@H]1C[C@H](n2cnc3c(N)nc(N)nc32)O[C@@H]1COP(=O)(O)OP(=O)(O)OP(=O)(O)O  Ki (TERT (Homo sapiens, UniProt O14746); enzyme activity, inhibitor): 0.26 µM
CC(Oc1cc(-c2ccccc2)nc2ccncc12)C(=O)N(C)c1ccccc1 (stereo not shown)  Ki (Tspo (Rattus norvegicus, UniProt P16257); binding, radioligand displacement; rat brain homogenate): 0.0006 ± 0.0001 µM
COc1c(Cl)ccc(CN(CCC(=O)NO)Cc2ccc(Cl)c(OC)c2F)c1F  Ki (Astl; enzyme activity, inhibitor, fluorogenic; pH 7.4, 37 °C, apparent Ki, Morrison equation, with: 25 µM substrate): 1.13 ± 0.09 µM
CC[C@H](C)[C@H](NC(=O)[C@H](CCCCN)NC(=O)[C@H](CO)NC(=O)[C@@H](NC(=O)[C@H](CCC(N)=O)NC(=O)[C@H](CCSC)NC(=O)[C@@H](N)CS)[C@@H](C)O)C(=O)O  Ki (Na(+)/H(+) exchange regulatory cofactor NHE-RF2, PDZ domain 1 (Homo sapiens, UniProt Q15599); binding to PDZ1 domain, inhibitor, fluorescence polarization): 806 ± 84 µM
CCC(NC(=O)C(CC(C)C)NC(=O)Nc1ccncc1)C(=O)C(=O)NCc1cc(OC)cc(OC)c1 (stereo not shown)  Ki (Calpain-2 catalytic subunit; enzyme activity, inhibitor, fluorescence): 0.139 µM
CCCc1nc2ccc(N(Cc3ccco3)C(=O)c3ccccc3)cc2c(=O)n1Cc1ccc(-c2ccccc2-c2nnn[nH]2)cc1  Ki (AGTR1 (Homo sapiens, UniProt P30556); ligand displacement, radioligand): 0.0037 µM
CC(C)(Sc1nc2ncccc2n1Cc1ccc(Br)c2ccccc12)C(=O)O  Ki (SLC22A12 (Homo sapiens, UniProt Q96S37); transporter uptake, inhibitor, radiometric): 0.079 µM
CC(C)C[C@@H]1NC(=O)[C@H](C)NC(=O)[C@H](CC2CCN(C(=N)N)CC2)NC(=O)[C@H](CO)NC(=O)[C@H](CCCNC(=N)N)NC(=O)[C@H](CCCCN)NC(=O)[C@@H]2CCCN2C(=O)[C@@H](N)CSSC[C@@H](C(=O)O)NC(=O)[C@H](Cc2ccccc2)NC1=O  Ki (Plasma kallikrein (Klkb1, Mus musculus, UniProt P26262); enzyme activity, inhibitor, absorbance; pH 7.4): 0.043 µM
CCC(NC(=O)C(CC(C)C)NC(=O)NCc1ccccc1)C(=O)C(=O)NCc1cccc(OC)c1 (stereo not shown)  Ki (Calpain-2 catalytic subunit; enzyme activity, inhibitor, fluorescence): 0.047 µM
O=C(N/N=C/c1cc(Br)c(O)c(Br)c1O)C(=O)Nc1ccc2ccccc2c1  Ki (CFTR; ion current, inhibitor): ~2 µM
Cc1ccc(NC(=O)c2ccc(-c3cc(O)ccc3C)c(C)c2)cc1F  Ki (EPHA2): > 0.25 µM
CCCCCCCCN=C1SC[C@@H]2[C@@H](O)[C@H](O)[C@@H](O)[C@@H](CCCCCCCC)N12  Ki (GLAA; enzyme activity, inhibitor): 305 µM
CCC(NC(=O)C(CC(C)C)NC(=O)CCc1ccc(C#N)cc1)C(=O)C(=O)NCc1cc(OC)cc(OC)c1 (stereo not shown)  Ki (Calpain-2 catalytic subunit; enzyme activity, inhibitor, fluorescence): 0.133 µM
COc1cc(C(=O)c2[nH]c(N)nc2-c2cccs2)cc(OC)c1OC  Ki (tubulin, goat; colchicine binding, inhibitor; 37 °C, with: colchicine 10 µM): 1.1 ± 0.13 µM
CCC(NC(=O)C(CC(C)C)NC(=O)CCc1ccccc1)C(=O)C(=O)NCc1cccc(OC)c1 (stereo not shown)  Ki (Calpain-2 catalytic subunit; enzyme activity, inhibitor, fluorescence): 0.054 µM
CN[C@@H](C)C(=O)N[C@H]1CN(C(=O)Cc2ccccc2)CC[C@H]2CC[C@@H](C(=O)NCc3ccccc3)N2C1=O  Ki (XIAP BIR3; ligand displacement, FP): 0.323 µM
O=C(CCN(Cc1ccc(Cl)c(O)c1F)Cc1ccc(Cl)c(O)c1F)NO  Ki (Astl; enzyme activity, inhibitor, fluorogenic; pH 7.4, 37 °C, apparent Ki, Morrison equation, with: 25 µM substrate): 0.49 ± 0.06 µM
CNC(=O)C1CCN(c2ccccc2NC(=O)c2ccc(-c3ccncc3)c(C)c2)CC1  Ki (EPHA2): > 0.25 µM
CCC[C@@H]1[C@H](O)[C@@H](O)[C@H](O)[C@@H](CO)N1C(=S)NCCc1ccccc1  Ki (GLAA; enzyme activity, inhibitor): 455 µM
CSCC[C@H](NC(=O)[C@@H](N)CS)C(=O)N[C@@H](CCC(N)=O)C(=O)N[C@H](C(=O)N[C@@H](CO)C(=O)N[C@@H](CCCCN)C(=O)N[C@@H](CC(C)C)C(=O)O)[C@@H](C)O  Ki (Na(+)/H(+) exchange regulatory cofactor NHE-RF2, PDZ domain 2 (Homo sapiens, UniProt Q15599); binding to PDZ2 domain, inhibitor, fluorescence polarization): 10 ± 0.6 µM

Excerpt of the above:
CC(C)N1C[C@H](C)[C@H](NC(=O)c2cc3ccc(Br)cc3[nH]2)C1  Ki (DRD2 (Homo sapiens, UniProt P14416); ligand displacement, radioligand): > 10 µM
CN[C@@H](C)C(=O)N[C@H]1CN(C(=O)Cc2ccccc2)CC[C@H]2CC[C@@H](C(=O)NCc3cccc(C(F)(F)F)c3)N2C1=O  Ki (XIAP BIR3; ligand displacement, FP): 3.75 µM
CNc1ccccc1C(=O)O[C@H]1[C@@H](O)[C@H](n2ccc(N)nc2=O)O[C@@H]1COP(=O)(O)OP(=O)(O)O  Ki (ADCY1 (Bos taurus, UniProt P19754); adenylyl cyclase activity, inhibitor; Sf9 membranes; with: 5 mM MnCl2, 100 µM forskolin): 0.58 ± 0.01 µM
C#CCOC(=O)[C@@]1(C)C=C(C(=O)OC(C)(C)C)C(=O)CC1  Ki (MAPK1 (Homo sapiens, UniProt P28482); ligand displacement, FP): 3.8 µM
